Assay results collected from several papers.
Compare with care: the assays were run in different laboratories. Values joined by “and” are separate records of one study, mostly repeats; a detail may differ. ± gives the spread as reported.

With C[C@H](Oc1ccc(Br)cc1-c1ccon1)C(=O)O the latency change was -1.13% (muscle velocity recovery cycles; human, tibialis anterior muscle; 200 mg once daily, multiple doses, 30 Hz train for 30 s; baseline: placebo).
For CC(=O)Oc1cc2c(s1)CCN(C(C(=O)C1CC1)c1ccccc1F)C2 (stereo not shown), “patients with IPA above threshold” read 0% (platelet aggregation, light transmittance aggregometry; human, platelet-rich plasma; 15 min, IPA above 80 %, together with: TRAP 15 µM; baseline: patients).
Cc1cn(-c2ccc3n(c2=O)CCN([C@@H](C)[C@@H]2CC[C@H](c4cc(F)c(Cl)cc4C(F)(F)F)O2)C3=O)cn1: “change from baseline” 46.5% (refers to: amyloid beta 38; human, non-elderly, cerebrospinal fluid; 200 mg once daily, 14 days, sampled 336 h; baseline: placebo).
For CCc1c(C)nc(-c2ccc(Cl)s2)nc1Nc1ccc(CC(=O)O)cc1, PDE4B expression read “decreased” (C57BL/6J mouse, high-fat diet MASH model, liver; intraperitoneal, 0.3 mg/kg daily, 60% fat diet for 12 weeks, dosed final four weeks; baseline: untreated).
The inhibition of CC[C@@H]1[C@H](F)C(=O)N[C@@H]1COc1nccc2cc(C(N)=O)c(OC)cc12 is reported as -1.6% (ATP-site probe binding, ActivX profiling, refers to: TAO1, TAO3; THP-1 cell lysate; 0.04 mM, Lys2 site).
With NCC(=O)Nc1cncc(-c2nn3c(=O)cc(N4CCNCC4)nc3s2)c1 the inhibition was 20.5% (ADP-induced platelet aggregation, light transmission aggregometry; human, stable CAD on aspirin, ex vivo platelets; subcutaneous, 0.04 mg/kg, 5 min post-dose, median value, together with: ADP 20 µM).
Under “PNH RBC clone size”, CCO[C@H]1CCN(Cc2c(OC)cc(C)c3[nH]ccc23)[C@H](c2ccc(C(=O)O)cc2)C1 is recorded as 20.5% (PNH patients, blood; oral, 50 mg then 200 mg, week 2, mean absolute change; baseline: baseline).
Under “delta delta Ct”, COc1ccc(-c2cncc(N[C@@H](C)c3cccc(NC(=O)c4cncc(C)c4)c3)n2)cc1OC is recorded as -0.188 (refers to: rno-miR-874-3p; rat SU5416/hypoxia model, lung; dose not given, unit not given; baseline: SU5416/hypoxia vehicle).
Under “motor block duration”, CCCN1CCCC[C@H]1C(=O)Nc1c(C)cccc1C is recorded as 156 ± 8.8 min (Sprague-Dawley rat, female; sciatic nerve injection, 15 mM).
Under “overall response rate”, COc1ccc(F)cc1C(=O)NCc1ccc(-c2nn([C@@H](C)C(F)(F)F)c(N)c2C(N)=O)cc1 is recorded as 66% (CLL/SLL patients, BTK wild type; dose not given).
For C[C@H]1C[C@H]2CSC(N)=N[C@@]2(c2nc(NC(=O)c3ccc(OC(F)F)cn3)cs2)CO1, “percent change from baseline” read -61.6% (refers to: total Aβ; healthy adults, plasma; 50 mg once daily, day 4; baseline: placebo).
For CN(C)C(=O)Oc1cccc([N+](C)(C)C)c1, the train-of-four ratio was 98 (neuromuscular block reversal; rat; dose not given, 18 (unit not given), together with: cisatracurium; baseline: T1 twitch).
CC(C)[C@H](C(=O)Nc1ccc(C(=O)NO)cc1)c1ccccc1 — result for “pure tone average”: 55 dB (human, right ear; 2 weeks after treatment).
CC(C)NCC(O)c1ccc(O)c(O)c1 (stereo not shown) gave a sarcomere length of 1.49 µm (ventricular cardiomyocytes, C57BL/6 mouse; dose not given, 0.536 s).
C[C@H]1O[C@@H](O[C@H]2CC[C@@]3(C)[C@@H](CC[C@]4(C)[C@@H]3C=C[C@]35OC[C@@]6(CCC(C)(C)C[C@H]63)[C@@H](O)C[C@]54C)[C@]2(C)CO)[C@H](O)[C@@H](O[C@@H]2O[C@H](CO)[C@@H](O)[C@H](O)[C@H]2O)[C@H]1O gave a total cholesterol of 1.71 mM and 1.97 mM and 1.66 mM and 1.74 mM and 1.86 mM (chronic-plus-binge ethanol mice, plasma; oral, 5 mg/kg/day for 7 d, 168 h).
C[C@@H]1COCCN1c1cc([C@]2(O)C[C@H]3CC[C@@H](C2)O3)c2cnn(-c3cc[nH]n3)c2n1 — result for “tumour growth inhibition”: 81 ± 1.4% (mice, Granta-519 xenograft; 30 mg/kg once daily for 3 days, day 14).
Under “log2 fold change”, Cc1n[nH]c2ccc(-c3cc(OC[C@@H](N)Cc4ccccc4)cnc3-c3ccoc3)cc12 is recorded as -0.847 (kinase binding, competitor, MIB/MS competition, refers to: SSK2; Candida albicans cell lysate; 1 µM; baseline: DMSO).
For Cl.O=C(c1cc(Cc2n[nH]c(=O)c3ccccc23)ccc1F)N1CC(CNC2CC2)C1, “tumour growth inhibition” read 71% (BALB/c nude mouse, MX1 xenograft; oral, 50 mg/kg once daily, 23 days).
With O=C(NO)c1ccc(CN(c2cnccn2)c2cnccn2)cc1 the progression-free survival was 12.6 months (human; 400 mg BID).
Under “CHAC1 mRNA change”, O=C(COc1ccc(Cl)cc1)NC12CC(c3nnc([C@H]4C[C@@H](OC(F)(F)F)C4)o3)(C1)C2 is recorded as -78.7% (healthy human, PBMC; 260 mg once daily, day 14, 4 h post-dose, median, together with: sodium arsenite ex vivo; baseline: baseline).
For Cc1cc(Nc2cc3ncccc3c(N[C@@H]3C[C@H]4CC[C@@H](C3)N4CCC#N)n2)n[nH]1, “change in total Mayo” read -1.3 (moderate-severe ulcerative colitis patients; 20 mg, day 28, unit not given; baseline: baseline).
For COc1ccc(F)cc1C(=O)NCc1ccc(-c2nn([C@@H](C)C(F)(F)F)c(N)c2C(N)=O)cc1, the tumour regression was -48% (mouse TMD8 BTK C481S xenograft; oral, 30 mg/kg twice daily).
CCCOc1ccc(-c2ccc(C#N)cc2)cc1 — result for “number of downregulated proteins”: 317 (proteomics; rat placenta; 0.01 µg/mL, low dose, fold change ≥1.5; baseline: control).
OCC(O)CO has an FGF21 level of 2490 pg/mL and 2310 pg/mL and 737 pg/mL and 936 pg/mL and 545 pg/mL (ELISA; male Slc25a13-/- Gpd2-/- mice, serum; drinking water, 5% w/v, 2 days).
Under “power, delta EEG, O2-Pz”, OC(CCN1CCCCC1)(c1ccccc1)C1CC2C=CC1C2 (stereo not shown) is recorded as 9.9 µV² (resting-state EEG; healthy elderly humans; oral, 4 mg, eyes closed, LS mean).
CCN1CCN(Cc2ccc(Nc3ncc(F)c(-c4cc(F)c5nc6n(c5c4)[C@H](C)CCC6)n3)nc2)CC1 has a partial response of 16.7% (human advanced solid tumours; 500 mg, phase Ia monotherapy RECIST 1.1).
C[C@@H](O)CCOC(=O)C[C@@H](C)O gave a metabolite level of -5.31 ± 0.75 µmol/L (refers to: C8:1-OH/C6:1-DC acylcarnitine; human, plasma; 60 min, log2-transformed values).
Under “peak inhibition range”, N#CC[C@H](C1CCCC1)n1cc(-c2ncnc3[nH]ccc23)cn1 is recorded as 10 to 74.3% (phosphoflow cytometry, refers to: pSTAT5; patient plasma; concentration not given).
Under “patients not evaluable or unknown”, C[C@H](NC(=O)c1c(C(F)F)nn(C)c1Oc1cccc(C(F)(F)F)c1)c1ccc(C(=O)O)cc1 is recorded as 37.5% (irRECIST best overall response; patients with advanced tumours; 250 mg).
Under “GSVA score change”, Cc1cc(-c2nnc(N)nc2-c2ccc(F)cc2)cc(Cl)n1 is recorded as -0.194 (NanoString, refers to: pDCs.R.IO signature; human mCRPC, peripheral blood; dose not given, 2 or 4 weeks; baseline: baseline, direction not given).
For N#Cc1ccc2c(-c3ccncc3)c(-c3ccc(F)cc3)nn2c1, “log2 fold change” read -0.0131 (kinase binding, competitor, MIB/MS competition, refers to: RCK2; Candida albicans cell lysate; 1 µM; baseline: DMSO).
For O=C(O)CNC(=O)Cc1ccccc1, the sarcomere length was 1.72 µm (ventricular cardiomyocytes, C57BL/6 mouse; dose not given, 0.332 s).
For Cc1c(C)n(Cc2cccc(OC(C)(C)C(=O)O)c2)c2ccc(C(=O)N[C@@H](C)c3ccc(C(C)(C)C)cc3)cc12, the locomotor activity was 482 ± 269 counts/20 min (indirect calorimetry; mice, diet-induced obese; dose not given, average over 72 h, end of treatment).
CSc1ccc(C(=O)/C=C/c2cc(C)c(OC(C)(C)C(=O)O)c(C)c2)cc1 — result for “serum HDL level”: “increased” (db/db mice on MCD diet; oral, 30 mg/kg daily, 45 days).

Repeated from above:
For COc1ccc(F)cc1C(=O)NCc1ccc(-c2nn([C@@H](C)C(F)(F)F)c(N)c2C(N)=O)cc1, the tumour regression was -48% (mouse TMD8 BTK C481S xenograft; oral, 30 mg/kg twice daily).
CCCOc1ccc(-c2ccc(C#N)cc2)cc1 — result for “number of downregulated proteins”: 317 (proteomics; rat placenta; 0.01 µg/mL, low dose, fold change ≥1.5; baseline: control).
OCC(O)CO has an FGF21 level of 2490 pg/mL and 2310 pg/mL and 737 pg/mL and 936 pg/mL and 545 pg/mL (ELISA; male Slc25a13-/- Gpd2-/- mice, serum; drinking water, 5% w/v, 2 days).
